Literature values, collected from citations in different studies.
Protocols differ between the studies behind these lines. Numbers after ± are the reported error.

The chains behind the UniProt entries cited, without tags or fusion partners.
UniProt P32300, whole entry: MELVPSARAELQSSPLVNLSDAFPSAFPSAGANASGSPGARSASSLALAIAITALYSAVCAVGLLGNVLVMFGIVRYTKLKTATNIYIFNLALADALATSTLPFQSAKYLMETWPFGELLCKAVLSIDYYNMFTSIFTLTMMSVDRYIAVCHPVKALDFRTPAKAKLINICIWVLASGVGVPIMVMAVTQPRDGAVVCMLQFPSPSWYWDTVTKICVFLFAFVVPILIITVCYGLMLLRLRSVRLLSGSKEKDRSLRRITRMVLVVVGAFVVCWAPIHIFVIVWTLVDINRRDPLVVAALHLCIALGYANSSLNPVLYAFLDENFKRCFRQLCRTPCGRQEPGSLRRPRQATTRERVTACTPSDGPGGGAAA

Substance	target	test	system	conditions	scale	endpoint	result
CO[P@]1(=O)OC[C@H]2COC(=O)C2=C(C)O1	insect acetylcholinesterase	enzyme activity, inhibitor	–	–	–	IC50	0.0008 µM
CNC(=O)Oc1cccc2ccccc12	acetylcholinesterase 1 (Anopheles gambiae)	enzyme activity, inhibitor	–	concentration not given	–	bimolecular inactivation rate	7330 M⁻¹ s⁻¹
[D-Ala2,Leu5,Cys6]enkephalin	Delta-type opioid receptor (Oprd1, Mus musculus, UniProt P32300)	binding	–	–	–	concentration for 50% site loss	3 µM
Cc1cn(CC(=O)N(CCNC(=O)CN(CCNC(=O)CN(CCNC(=O)CN(CCNC(=O)CN(CCNC(=O)CN(CCNC(=O)CN(CCNC(=O)CN(CCNC(=O)CN(CCNC(=O)CN(CCNC(=O)COCCOCCNC(=O)COCCOCCNC(=O)[C@H](CNC(=O)[C@H](CNC(=O)[C@H](CNC(=O)[C@H](CNC(=O)COCCOCCNC(=O)CN2CCN(CC(=O)O)CCN(CC(=O)O)CCN(CC(=O)O)CC2)NC(=O)COCCOCCNC(=O)CN2CCN(CC(=O)O)CCN(CC(=O)O)CCN(CC(=O)O)CC2)NC(=O)[C@H](CNC(=O)COCCOCCNC(=O)CN2CCN(CC(=O)O)CCN(CC(=O)O)CCN(CC(=O)O)CC2)NC(=O)COCCOCCNC(=O)CN2CCN(CC(=O)O)CCN(CC(=O)O)CCN(CC(=O)O)CC2)NC(=O)[C@H](CNC(=O)[C@H](CNC(=O)COCCOCCNC(=O)CN2CCN(CC(=O)O)CCN(CC(=O)O)CCN(CC(=O)O)CC2)NC(=O)COCCOCCNC(=O)CN2CCN(CC(=O)O)CCN(CC(=O)O)CCN(CC(=O)O)CC2)NC(=O)[C@H](CNC(=O)COCCOCCNC(=O)CN2CCN(CC(=O)O)CCN(CC(=O)O)CCN(CC(=O)O)CC2)NC(=O)COCCOCCNC(=O)CN2CCN(CC(=O)O)CCN(CC(=O)O)CCN(CC(=O)O)CC2)NC(=O)[C@H](CNC(=O)[C@H](CNC(=O)[C@H](CNC(=O)COCCOCCNC(=O)CN2CCN(CC(=O)O)CCN(CC(=O)O)CCN(CC(=O)O)CC2)NC(=O)COCCOCCNC(=O)CN2CCN(CC(=O)O)CCN(CC(=O)O)CCN(CC(=O)O)CC2)NC(=O)[C@H](CNC(=O)COCCOCCNC(=O)CN2CCN(CC(=O)O)CCN(CC(=O)O)CCN(CC(=O)O)CC2)NC(=O)COCCOCCNC(=O)CN2CCN(CC(=O)O)CCN(CC(=O)O)CCN(CC(=O)O)CC2)NC(=O)[C@H](CNC(=O)[C@H](CNC(=O)COCCOCCNC(=O)CN2CCN(CC(=O)O)CCN(CC(=O)O)CCN(CC(=O)O)CC2)NC(=O)COCCOCCNC(=O)CN2CCN(CC(=O)O)CCN(CC(=O)O)CCN(CC(=O)O)CC2)NC(=O)[C@H](CNC(=O)COCCOCCNC(=O)CN2CCN(CC(=O)O)CCN(CC(=O)O)CCN(CC(=O)O)CC2)NC(=O)COCCOCCNC(=O)CN2CCN(CC(=O)O)CCN(CC(=O)O)CCN(CC(=O)O)CC2)C(=O)Cn2cnc3c(=O)[nH]c(N)nc32)C(=O)Cn2ccc(N)nc2=O)C(=O)Cn2ccc(N)nc2=O)C(=O)Cn2cnc3c(N)ncnc32)C(=O)Cn2cnc3c(N)ncnc32)C(=O)Cn2ccc(N)nc2=O)C(=O)Cn2cnc3c(N)ncnc32)C(=O)Cn2cnc3c(=O)[nH]c(N)nc32)C(=O)Cn2ccc(N)nc2=O)CC(=O)NCCN(CC(=O)NCCN(CC(=O)NCCOCCOCC(=O)N[C@@H]2CSSC[C@H](C(N)=O)NC(=O)[C@@H](CCCCN)NC(=O)[C@@H](CO)NC2=O)C(=O)Cn2ccc(N)nc2=O)C(=O)Cn2ccc(N)nc2=O)c(=O)[nH]c1=O	KRAS G12D RNA 20-mer	PNA/RNA duplex	–	–	–	melting temperature	68.8 ± 0.5 °C
CCOP(=O)(OCC)Oc1nc(Cl)c(Cl)cc1Cl	neuropathy target esterase human	enzyme activity, inhibitor	differentiated SH-SY5Y	60 min	–	IC50	0.069 µM
C=C(C)[C@@H]1[C@H]2OC(=O)[C@@H]1[C@]1(O)C[C@H]3O[C@]34C(=O)O[C@H]2[C@]14C	GABA-A receptor beta-3 homopentamer	binding	–	–	–	affinity	32 nM
quinacrine mustard	F1-ATPase beta subunit	binding	–	–	–	Kd	27 µM
dimethyl sulfoxide	acetylcholinesterase Electrophorus electricus	–	–	–	–	Ki	80000 µM
CCCC(=O)SCC[N+](C)(C)C	acetylcholinesterase 1 (Anopheles gambiae)	substrate	–	with: acetylthiocholine	reference: acetylthiocholine Vmax	relative Vmax	0.11
CN[C@H](CC(=O)O)C(=O)O	kainate receptor rat	[3H]kainate displacement	brain synaptosomes	–	–	IC50	> 100 µM
C=C(C)[C@@H]1[C@H]2OC(=O)[C@@H]1[C@]1(O)C[C@H]3O[C@]34C(=O)O[C@H]2[C@]14C	GABAA receptor	ion current, inhibitor, whole-cell patch clamp	cells expressing recombinant receptors	–	–	IC50	~4 µM

For quick reference, copied from above:
Substance	target	test	system	conditions	scale	endpoint	result
CN[C@H](CC(=O)O)C(=O)O	kainate receptor rat	[3H]kainate displacement	brain synaptosomes	–	–	IC50	> 100 µM
